Measured values gathered from unrelated publications.
Every numbered part comes from another study and shows a few of its results, in no order.

Block 1
Target: RNA binding protein fox-1 homolog 2, RRM domain, GST-SBP tag (RBFOX2, Homo sapiens, UniProt O43251-10, residues 100-194)
Method: RNA Bind-n-Seq
Molecule type: RNA
Medium: in vitro
Concentration: 365 nM
Setting: natural RNA segment, single round, ends assumed
Relative to: no-protein control
Direction: higher = stronger binding
Measurement: RBNS enrichment (R)
All sequences stand within: GGGAGUUCUACAGUCCGACGAUC … UGGAAUUCUCGGGUGCCAA
Target sequence (chain): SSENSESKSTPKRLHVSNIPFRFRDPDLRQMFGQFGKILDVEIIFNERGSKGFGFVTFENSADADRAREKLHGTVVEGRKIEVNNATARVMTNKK
UGUAUGUGUGUUGUGCAUCUUCCUUGUUGUUUUAGAGUUUCCUAAAUUUUUUGCUUCUGGGGACUUGAGUAUUUUUAAAUGUUCUUAAAAUUAUAUGAAUCUACCCAGAA: 2.87
CCCUGGCUCGGAGCCCAGGGCAGAGGCAGCUCAGAGUGGAGGCUCUAGGCAGGUUUGACAAAGGUCAGUAAUACGGUUUCCCCUGGGGUUGACCAGAUGUUCCAAAAUAU: 0.697
GGGCAGCUCUGGCUAGAUGCCUAUCUUCACCAAUAACAACAGCCACCCUGCCCAGUCUGGAAGAAGAGGAGGAAGACUCUGGAGCCAAGGCAGAGGGGAGCUUGAGGGAC: 0.521
GGGCUCCUGCCCAGGACAGGCACCAGGGUCAUGGCCUGGGACCUGGACACUGGCCCCUCCACCCUCCCUCCCCUCCCGGCUCCCCGGCCAGAGGGAGAGCUUGGUCUCUG: 0.28
CAUCUUGCCUACCAUUGCAUGAAACAUUGGGGUUUCUUCAAAAUGUGUGUGUCAUACUUCUUUUGGGAGGGGGUUGUUUUCUUCUUUUAUGAAACUCCUACUGGAGCUCA: 1.68
AGUUGUUUGGUAAGGUUUGGGGUGUUUUUUGUUUUGUUUUGUUUUAAGUUUCCAAACAACCAAACUAAGAAAAAUGCUGGAUGCUUUUAGAAUACAAAACUUACUCAAGU: 2.45
CCAUAAUUUUCUAGUAAUAGCCACGACCAAUUUAUUAACAGUCAGGGCCUAUCCUUGCCUGUAGUUCUCAGUCACUGGAUGCACAAAAUCACUGUGUAACAUUGGCUCAC: 0.282
GUUUGUAUGUAUCCUUAUCAAAUAUAUUCUAUAAGGAAAUAAAAUCUGAAAAGUGACUUUCUUAUUGACCUACGUUUCUGAAAGUAUGUGAAUUAAAGAAUUUAAAAUUA: 0.575
UGGCCAGCUGAGCCCAGGUUACUUGGUACCCACUCUGCCUUGAGCCUUCCUUCCCCCAGGGCCUAUUUCUUGUGUGGAUCACGUGGCAGUAGCAUGUUGCAGUCAGACGU: 4.87
CCGGAGGCGGCCUUCCCAUCUGCCUGCCCACCCGGAGCUCUUUCCGCCGGCGCAGGGUCCCAAGCCCACCUCCCGCCCUCAGUCCUGCGGUGUGCGUCUGGGCACGUCCU: 0.4
CUUAUUUUCCCGUGGCCAGGACGCAUUUCUCUGAGUGGAAACAGGUUCUUGCAUGUGGAUGUGUGUUUCCCCAGGCAGACGGCCCCUCUCUUCCCAGCACUUCCCUGCCU: 8.47
AAAAACCGAAUAACCAAGCAGCGCGUCUGCUCUUUCCCUGAUUCGCAUGUGACUGUGAUGCUUUCCAGUCACAUUCAUCACGCACUCAGACCUGUGGCCUGGUGGGACCA: 0.383

Block 2
Target: RING finger protein unkempt homolog, zinc fingers 1-6, GST-SBP tag (UNK, Homo sapiens, UniProt Q9C0B0, residues 30-357)
Chain of UniProt Q9C0B0 (30-357, looked up): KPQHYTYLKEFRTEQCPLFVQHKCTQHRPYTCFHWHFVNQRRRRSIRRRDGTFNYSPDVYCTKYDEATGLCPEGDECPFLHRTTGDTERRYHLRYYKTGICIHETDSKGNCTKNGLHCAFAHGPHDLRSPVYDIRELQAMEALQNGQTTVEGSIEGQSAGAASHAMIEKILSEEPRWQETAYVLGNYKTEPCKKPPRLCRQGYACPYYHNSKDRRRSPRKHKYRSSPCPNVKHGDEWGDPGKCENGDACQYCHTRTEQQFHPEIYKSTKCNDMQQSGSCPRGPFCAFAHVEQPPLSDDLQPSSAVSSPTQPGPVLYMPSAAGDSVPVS
Method: RNA Bind-n-Seq
Molecule type: RNA
Medium: in vitro
Concentration: not given
Setting: RNA with constant flanks, human-mouse chimeric sites, ends assumed
Relative to: input RNA pool
Direction: higher = stronger binding
Measurement: bound/input enrichment
All sequences stand within: GGGAGUUCUACAGUCCGACGAUC … CAACAGAGGAUUGAGCAUCA
UCUGGUCACACUCGUGUGUAUGGUGUUUGCUUUGUGGACACUUCACUGGGCAAGUUUUUCAUCGGCCAGUUUUCAGAUGACCGCCACUGUUCGAGAUUUAGGACGCUAGUGGCUCACUAU: 0.201 ratio
ACAGUUAUAUUGUUGAGUUUCAUUUUCAUAUAUUCUUGUAGUGUCUGCUUGCCUGUGACUUCUGGUAAAAUAAGACUAGCCUUUGAAAAUAUUUUAGCAUGGUAUUUUUCUAAAAAUAAA: 7.78 ratio
AAAUCGUGUGUGUCCAAUAUUGAAAGUGCUUUAUCUACACUCCAAUAUGUAAGCAGUAUAGUAGUUUCUUUAGAGAAUAGGUCAGCCAUUGUGAAGUACAAUGCAAGCUUAGUCACUCCA: 12.4 ratio
AUAGAUGAAAUUGAUGUGGACCAGGAAGGAAUUGCUGAAAUGAUCCUGGAUGAAAAUGCUAUUGCUCAGGUCCCACGCCCUGGCACAUCUUUGAAGCUCCCUGGAACUAAUCAGACAGGA: 0.29 ratio
UUUGUAUUUAUGCUAAGCACACGUGCUGGUGGUCUGGGCAUCAAUCUUGCGACUGCUGAUGUAGUCAUUUUAUAUGAUUCUGAUUGGAAUCCGCAAGUUGAUCUUCAGGCUAUGGACCGU: 0.119 ratio
CUGGCCUGGCCCUCCCCUCUAGUGACCUUUCGUAUAGUCACUGCUUCUGCAUCAGAUACUUUCAGCUGCAACUCCCUACUGGGUGGGGCACCCAUUUCAGGCAGAAGUUGGUGCCCCCCU: 0.609 ratio
UACUACUAUGAUGGUGAUAUUGGCAAUUAUUAUUAUGGCCAGGGUCAUCCCAUGAAGCCUCAUAGAAUCCGGAUGACUCAUAACUUGCUGCUAAAUUAUGGCUUAUACAGAAAAAUGGAA: 0.203 ratio
CAGGGCACAGCACCUACCCCCUCCUCCUUUCCACACCUGCAAACUCUUUUACUUGGGCUGCAUAGUUAGUGUAAUUACAUCUCAGCUUUGAGGGCUCCUGUGGCAAAUUCCCGGAUUAAA: 1.47 ratio
AAAGAGAAAGCUAAAACACUAAUAGAGAAGAGGAUUGGCAAAGAGAAUUUCAUAGAGAAACUAGGAUUUAUUAGCAAACAUGAGUUAUAUUCCAGAGGCAUCUCAGAACCCCAGCCAAAC: 10.8 ratio
GCUCCUCCCCGCUCUGCCCCUGCCUGCCACUGGGCUGCAUUUUUUUUCCAGCUUUCUUUUAAAACUCUCAGUGUAACUGUAUCCCGUGACAUUUCAUUUUUUUUAAAUAGUGUAUUUUUU: 5.83 ratio
AAAGAGUGGAUAGAAUGUGCACACGGGAUCGGUGGGACUCGGGCAGAAAAGGAGUGCAAGAUAGAGUUCGAUGACUUCGAAGAGUGCUUGCUUCGGUACAAAACGAUGAGGCGAAUGCAU: 0.256 ratio

Block 3
Target: Histone acetyltransferase KAT6A, winged helix 1, GST fusion (KAT6A, Homo sapiens, UniProt Q92794, residues 1-85)
Method: protein binding microarray
Molecule type: double-stranded DNA, one strand shown
Medium: in vitro
Concentration: not given
Setting: 8-mer, flanks averaged, mean of 2 arrays, mostly near background
Relative to: not given
Direction: higher = stronger binding
Measurement: E-score
Construct (chain): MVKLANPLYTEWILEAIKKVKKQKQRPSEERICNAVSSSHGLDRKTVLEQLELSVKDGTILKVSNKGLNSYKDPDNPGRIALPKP
ATTATTTG: -0.259
GTTACTTA: -0.0274
ACAGGGTG: -0.149
ATTGTAAA: -0.237
GGCACCCA: -0.00821
CTTGCTTA: -0.126
GTTCGTGA: -0.101
ATTTTAAA: -0.0945
CGTCGGGA: 0.397
AAAGAAGG: -0.168
AGAGAGCC: 0.0226
CGCTCGTA: 0.0905
ACTAACGC: 0.0595
GAGTTCGA: -0.0959
GGAAGCAA: -0.157
TGCTATAA: -0.163
CTGGTGAC: -0.074
CGGGTGCC: 0.375
GAGGTGAA: -0.0438
CAACAGTC: -0.125
CGTCCGCA: 0.226
AGCTGTGC: -0.129
GGATACCC: 0.0866
CTGTGGCC: 0.0282
CCTGGGCA: -0.214

Block 4
Target: Interferon regulatory factor 3, full length, phosphomimetic (IRF3, Homo sapiens, UniProt Q14653, residues 1-427, S386D/S396D/S398D/S402D/T404D/S405D)
Method: protein-binding microarray
Molecule type: double-stranded DNA, one strand shown
Medium: in vitro
Concentration: 2540 nM top
Setting: 60-bp whole probe
Together with: salmon DNA 0.4 mg/ml
Relative to: random background probes
Direction: higher = stronger binding
Measurement: fitted relative affinity
All sequences stand within: GCCTAGCAC … GTCTTGATTCGCTTGACGCTGCTG
Target sequence (chain): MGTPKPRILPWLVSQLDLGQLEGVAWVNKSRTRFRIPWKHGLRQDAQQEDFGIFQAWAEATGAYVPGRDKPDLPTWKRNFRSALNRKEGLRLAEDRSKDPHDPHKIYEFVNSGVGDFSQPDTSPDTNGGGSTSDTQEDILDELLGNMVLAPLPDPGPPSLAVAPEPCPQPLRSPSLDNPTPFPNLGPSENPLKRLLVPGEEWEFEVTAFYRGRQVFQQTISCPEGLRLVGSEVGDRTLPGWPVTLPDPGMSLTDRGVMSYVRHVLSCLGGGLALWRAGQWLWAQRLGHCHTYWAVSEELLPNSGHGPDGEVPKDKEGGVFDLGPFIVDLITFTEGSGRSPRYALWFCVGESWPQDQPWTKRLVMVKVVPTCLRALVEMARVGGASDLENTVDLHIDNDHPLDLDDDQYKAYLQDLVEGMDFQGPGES
TCATTTATAAATTATCTTACTGTGCTA: 1.39 z-score
TTAGGACTGGACACTGGGTTGGTGCTA: -0.95 z-score
GACGGCATCCTACTGCTGACGTGCTAG: -0.344 z-score
TCCCCTCTAGGTTCTCTGAAGGTGCTA: 0.34 z-score
TTAGGTCTCGGTCTCGGTTTGTGCTAG: 1.58 z-score
TTAGGTCTTGGTATCGGTTAGTGCTAG: 1.41 z-score
TTAGGTATCCGACTGGGTTAGTGCTAG: 1.94 z-score
GACGATATCGACTTTCGGGACGTGCTA: 0.679 z-score
TCATTTCCAATTCTCTTACTGTGCTAG: 4.22 z-score
TTAGGTTTCAGGACTGGGTTAGTGCTA: 2.39 z-score
TTTGGTTTCCTTCTCCTTTAGTGCTAG: 10.6 z-score
GACCAACTGGGGACTGGAGACGTGCTA: -0.367 z-score
GACGATTTCAGTTTCGAAACGTGCTAG: 6 z-score
TTAGATATCGGGTACCGATTAGTGCTA: 1.03 z-score
TTAGGTTTCTGGACTGGGTTAGTGCTA: 1.68 z-score
TTAGATATCAGTCTCGTTTAGTGCTAG: 1.64 z-score
ATGTCTTCCCCTCTCTTTCCGTGCTAG: 1.04 z-score
GACGGTCTCGCTCTCGGGACGTGCTAG: 0.57 z-score
TTAGAATTCGGGTATCGATTAGTGCTA: 0.403 z-score
TCACAGCTGTTTTTCTCACTGTGCTAG: 0.184 z-score
TTAGGTTGCCTTTCCCTTTAGTGCTAG: 6.59 z-score
AACGATATCAGTATCGAGACGTGCTAG: 1.28 z-score
TTAGGTCTCGGTATCGGTGAGTGCTAG: 1.57 z-score

A few entries again (block 3):
GGATACCC: 0.0866
CAACAGTC: -0.125
AAAGAAGG: -0.168
CTGGTGAC: -0.074
GAGGTGAA: -0.0438
ATTTTAAA: -0.0945
